Published values pooled from the literature.
Compare with care: the assays were run in different laboratories.
Organism: Staphylococcus aureus

SMILES | test | system | conditions | MIC
CN[C@H](CC(C)C)C(=O)N[C@H]1C(=O)N[C@@H](CC(N)=O)C(=O)N[C@H]2C(=O)N[C@H]3C(=O)N[C@H](C(=O)N[C@H](C(=O)O)c4cc(O)cc(O)c4-c4cc3ccc4O)[C@H](O)c3ccc(c(Cl)c3)Oc3cc2cc(c3O[C@@H]2O[C@H](CO)[C@@H](O)[C@H](O)[C@H]2O[C@H]2C[C@](C)(N)[C@H](O)[C@H](C)O2)Oc2ccc(cc2Cl)[C@H]1O | – | mecA−, antibiotic-susceptible | – | 1 µg/mL
c1ccc(CCOC2CCCc3c2[nH]c2ccccc32)cc1 (stereo not drawn) | broth microdilution | SA113 ΔtarO | – | > 16 µg/mL
CS(=O)(=O)Nc1ncn(-c2cc(F)c(COc3ccc(OS(=O)(=O)F)cc3)c(F)c2)n1 | – | MRSA | – | > 50 µM
CC[C@H](C)[C@H](NC(=O)[C@H](CC(C)C)NC(=O)[C@H](CCCCN)NC(=O)[C@@H](NC(=O)[C@H](C)NC(=O)[C@H](CCC(=O)O)NC(=O)[C@H](Cc1c[nH]cn1)NC(=O)[C@@H](NC(=O)[C@H](CCCCN)NC(=O)[C@H](CCC(N)=O)NC(=O)[C@H](Cc1ccccc1)NC(=O)[C@@H](N)C(C)C)[C@@H](C)CC)[C@@H](C)CC)C(N)=O | broth microdilution | USA300 resistant | 18 h, 37 °C | > 128 µM
CC[C@H](C)[C@H](N)C(=O)N[C@@H](CO)C(=O)N[C@@H](Cc1ccccc1)C(=O)N[C@@H](CC(C)C)C(=O)NCC(=O)N[C@@H](CO)C(=O)N[C@@H](CCCCN)C(=O)N[C@H](C(=O)N[C@H](C(=O)N[C@H](C(=O)N[C@@H](CC(C)C)C(=O)N[C@@H](CC(C)C)C(=O)N[C@@H](CCCCN)C(=O)N[C@@H](CCCNC(=N)N)C(=O)N[C@@H](CCCNC(=N)N)C(=O)N[C@@H](CCCNC(=N)N)C(=O)N[C@@H](CCCNC(=N)N)C(=O)N[C@@H](CCCNC(=N)N)C(=O)N[C@@H](CCCNC(=N)N)C(=O)N[C@@H](CCCNC(=N)N)C(N)=O)C(C)C)C(C)C)C(C)C | broth microdilution | ATCC 29213 | highest value reported | 4 µM
CC[C@H](C)[C@H](NC(=O)CNC(=O)[C@H](CC(=O)O)NC(=O)[C@H](CCCNC(=N)N)NC(=O)[C@@H](NC(=O)[C@H](CC(N)=O)NC(=O)[C@H](CCCNC(=N)N)NC(=O)CNC(=O)[C@@H](NC(=O)[C@H](CCCCN)NC(=O)[C@H](CCC(=O)O)NC(=O)[C@@H](NC(=O)[C@H](CCCCN)NC(=O)[C@H](CCCCN)NC(=O)[C@H](Cc1ccccc1)NC(=O)[C@@H](NC(=O)[C@H](CCCCN)NC(=O)[C@H](Cc1c[nH]c2ccccc12)NC(=O)[C@@H](N)CCCNC(=N)N)[C@@H](C)CC)[C@@H](C)CC)C(C)C)C(C)C)C(=O)N[C@H](C(=O)N[C@@H](CCCCN)C(=O)N[C@@H](C)C(=O)NCC(=O)N1CCC[C@H]1C(=O)N[C@@H](C)C(=O)N[C@H](C(=O)N[C@@H](C)C(=O)N[C@H](C(=O)N[C@H](C(=O)NCC(=O)N[C@@H](CCC(N)=O)C(=O)N[C@@H](C)C(=O)N[C@@H](C)C(=O)N[C@H](C(=O)N[C@H](C(=O)N[C@H](C(=O)N[C@@H](CCCCN)C(N)=O)C(C)C)C(C)C)[C@@H](C)O)C(C)C)C(C)C)C(C)C)[C@@H](C)CC | broth microdilution, MH medium | KCTC 1621 | 16 h, 37 °C | > 128 µM
N=C(N)NCCC[C@H](NC(=O)[C@H](Cc1c[nH]c2ccccc12)NC(=O)[C@H](CCCNC(=N)N)NC(=O)[C@@H](N)Cc1c[nH]c2ccccc12)C(=O)N[C@@H](Cc1ccccc1)C(=O)N[C@@H](CCC(N)=O)C(=O)N[C@@H](Cc1ccccc1)C(=O)N[C@@H](CCC(N)=O)C(=O)N[C@@H](Cc1ccccc1)C(=O)N[C@@H](CCCCN)C(N)=O | broth microdilution, optical density | ATCC 25923 | – | 140 µM
CC[C@H](C)[C@H](NC(=O)[C@H](CC(C)C)NC(=O)[C@H](CCCNC(=N)N)NC(=O)[C@@H](N)CCCNC(=N)N)C(=O)N[C@@H](CC(C)C)C(=O)N[C@H](C(=O)N[C@@H](CCCCN)C(=O)N[C@H](C(=O)NCC(=O)N1CCC[C@H]1C(=O)N[C@H](C(=O)N[C@H](C(=O)N[C@@H](Cc1ccc(O)cc1)C(=O)N[C@@H](CCCCN)C(=O)N[C@@H](Cc1ccc(O)cc1)C(=O)N[C@@H](Cc1ccccc1)C(=O)N[C@@H](CCCCN)C(=O)N[C@@H](CCCCN)C(=O)N[C@@H](CCC(N)=O)C(=O)N[C@@H](CC(C)C)C(=O)N[C@@H](CC(C)C)C(=O)N[C@@H](CCCCN)C(=O)N[C@@H](CC(C)C)C(N)=O)[C@@H](C)CC)[C@@H](C)CC)[C@@H](C)O)[C@@H](C)O | – | CCARM 3090, methicillin-resistant, Mueller-Hinton broth | 24 h | 64 µM
CC[C@H](C)[C@H](NC(=O)[C@H](Cc1ccc(O)cc1)NC(=O)[C@@H](NC(=O)[C@H](Cc1ccc(O)cc1)NC(=O)[C@@H]1CCCN1C(=O)[C@@H](NC(=O)[C@H](C)N)[C@@H](C)CC)[C@@H](C)CC)C(=O)N[C@@H](Cc1c[nH]c2ccccc12)C(=O)N[C@@H](CCCNC(=N)N)C(=O)N[C@@H](CC(C)C)C(=O)N[C@@H](CC(C)C)C(=O)N[C@@H](CCCNC(=N)N)C(=O)N[C@@H](CCCCN)C(=O)NCC(=O)O | broth microdilution | ATCC 35556 | 18 h, 37 °C | 3.75 µM
CC(C)C[C@@H](NC(=O)CNC(=O)[C@@H](CCCCN)NC(=O)[C@@H](CC(C)C)NC(=O)[C@@H](CCCCN)NC(=O)[C@@H](CCCNC(=N)N)NC(=O)[C@@H](CC(C)C)NC(=O)[C@@H](CC(C)C)NC(=O)[C@@H](CCCNC(=N)N)NC(=O)[C@H](N)CCCNC(=N)N)C(=O)N[C@H](CCCCN)C(=O)N[C@H](CCCCN)C(=O)N[C@H](Cc1ccc(O)cc1)C(=O)N[C@H](CC(C)C)C(=O)N[C@H](Cc1ccc(O)cc1)C(=O)N[C@H](Cc1ccccc1)C(=O)N[C@H](CCCCN)C(=O)N[C@H](CC(C)C)C(=O)N[C@H](CCC(N)=O)C(=O)N[C@H](CC(C)C)C(=O)N[C@H](CC(C)C)C(=O)N[C@H](CCCCN)C(=O)N[C@H](CCCCN)C(N)=O | broth microdilution | KCTC 1621, Mueller-Hinton broth | no added salt | 4 µM
CC[C@H](C)[C@H](N)C(=O)N[C@@H](CC(C)C)C(=O)NCC(=O)N[C@@H](CCC(=O)O)C(=O)N[C@H](C(=O)N[C@@H](Cc1c[nH]c2ccccc12)C(=O)N[C@@H](CCCCN)C(=O)NCC(=O)N[C@H](C(=O)N[C@@H](CCCCN)C(=O)N[C@@H](CC(=O)O)C(=O)N[C@H](C(=O)N[C@@H](CC(C)C)C(N)=O)[C@@H](C)CC)[C@@H](C)CC)[C@@H](C)CC | broth microdilution | ATCC 25923 | together with: NH4Cl 6 µM | > 100 µM
CC(C)C[C@H](NC(=O)CNC(=O)CNC(=O)CNC(=O)[C@H](Cc1ccc(O)cc1)NC(=O)[C@H](CC(C)C)NC(=O)[C@@H](NC(=O)CNC(=O)[C@H](Cc1ccc(O)cc1)NC(=O)[C@H](CCCCN)NC(=O)[C@H](CC(N)=O)NC(=O)[C@@H](NC(=O)[C@H](CCCCN)NC(=O)[C@H](Cc1c[nH]c2ccccc12)NC(=O)CN)[C@@H](C)O)[C@@H](C)O)C(=O)N[C@@H](CCCCN)C(=O)N[C@@H](CCCCN)C(=O)N[C@@H](CC(C)C)C(=O)N[C@@H](CC(C)C)C(=O)N[C@@H](CC(C)C)C(=O)N[C@@H](CC(C)C)C(=O)N[C@@H](CC(C)C)C(=O)N[C@@H](CCCCN)C(=O)N[C@@H](CCCCN)C(=O)N[C@@H](CC(C)C)C(=O)NCC(=O)O | – | ATCC 25923 | together with: 4.5 mM KCl | 16 µg/mL

A few entries again:
SMILES | test | system | conditions | MIC
CC(C)C[C@H](NC(=O)CNC(=O)CNC(=O)CNC(=O)[C@H](Cc1ccc(O)cc1)NC(=O)[C@H](CC(C)C)NC(=O)[C@@H](NC(=O)CNC(=O)[C@H](Cc1ccc(O)cc1)NC(=O)[C@H](CCCCN)NC(=O)[C@H](CC(N)=O)NC(=O)[C@@H](NC(=O)[C@H](CCCCN)NC(=O)[C@H](Cc1c[nH]c2ccccc12)NC(=O)CN)[C@@H](C)O)[C@@H](C)O)C(=O)N[C@@H](CCCCN)C(=O)N[C@@H](CCCCN)C(=O)N[C@@H](CC(C)C)C(=O)N[C@@H](CC(C)C)C(=O)N[C@@H](CC(C)C)C(=O)N[C@@H](CC(C)C)C(=O)N[C@@H](CC(C)C)C(=O)N[C@@H](CCCCN)C(=O)N[C@@H](CCCCN)C(=O)N[C@@H](CC(C)C)C(=O)NCC(=O)O | – | ATCC 25923 | together with: 4.5 mM KCl | 16 µg/mL
N=C(N)NCCC[C@H](NC(=O)[C@H](Cc1c[nH]c2ccccc12)NC(=O)[C@H](CCCNC(=N)N)NC(=O)[C@@H](N)Cc1c[nH]c2ccccc12)C(=O)N[C@@H](Cc1ccccc1)C(=O)N[C@@H](CCC(N)=O)C(=O)N[C@@H](Cc1ccccc1)C(=O)N[C@@H](CCC(N)=O)C(=O)N[C@@H](Cc1ccccc1)C(=O)N[C@@H](CCCCN)C(N)=O | broth microdilution, optical density | ATCC 25923 | – | 140 µM
